Published values of several laboratories.
Each numbered part is a random draw from the data of one study; scales do not carry over between parts. Changes are numbered by the printed parent chain.
Sequence of UniProt P00519 (whole entry, unmodified, looked up): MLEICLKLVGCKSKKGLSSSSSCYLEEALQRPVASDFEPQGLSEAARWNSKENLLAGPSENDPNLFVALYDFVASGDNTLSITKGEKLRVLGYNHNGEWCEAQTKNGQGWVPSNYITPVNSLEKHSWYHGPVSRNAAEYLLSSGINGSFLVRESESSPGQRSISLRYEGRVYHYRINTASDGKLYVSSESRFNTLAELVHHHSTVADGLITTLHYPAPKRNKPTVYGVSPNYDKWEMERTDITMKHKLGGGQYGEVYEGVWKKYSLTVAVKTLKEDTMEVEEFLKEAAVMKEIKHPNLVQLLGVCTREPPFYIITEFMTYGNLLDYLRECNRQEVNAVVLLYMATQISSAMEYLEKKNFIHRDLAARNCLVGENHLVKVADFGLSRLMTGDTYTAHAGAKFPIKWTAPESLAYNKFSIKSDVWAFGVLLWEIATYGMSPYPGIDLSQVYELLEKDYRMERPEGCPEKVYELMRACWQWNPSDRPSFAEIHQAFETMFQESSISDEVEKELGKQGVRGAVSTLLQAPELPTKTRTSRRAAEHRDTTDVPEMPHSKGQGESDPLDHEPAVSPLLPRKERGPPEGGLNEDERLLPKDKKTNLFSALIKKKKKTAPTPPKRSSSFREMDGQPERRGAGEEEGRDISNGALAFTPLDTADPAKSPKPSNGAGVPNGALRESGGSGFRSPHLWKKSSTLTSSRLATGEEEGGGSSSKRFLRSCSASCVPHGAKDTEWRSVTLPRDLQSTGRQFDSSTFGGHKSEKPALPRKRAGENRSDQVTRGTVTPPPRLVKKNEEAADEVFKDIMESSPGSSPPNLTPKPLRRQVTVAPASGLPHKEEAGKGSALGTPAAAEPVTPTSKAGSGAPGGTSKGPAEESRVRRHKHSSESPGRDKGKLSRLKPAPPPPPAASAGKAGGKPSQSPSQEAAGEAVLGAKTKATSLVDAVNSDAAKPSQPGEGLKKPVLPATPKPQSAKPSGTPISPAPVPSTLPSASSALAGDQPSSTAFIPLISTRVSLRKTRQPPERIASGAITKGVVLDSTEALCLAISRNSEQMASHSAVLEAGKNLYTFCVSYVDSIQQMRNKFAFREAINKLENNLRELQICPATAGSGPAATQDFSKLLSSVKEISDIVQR

Sample 1
Target: Dual specificity mitogen-activated protein kinase kinase 6 (MAP2K6, Homo sapiens, UniProt P52564)
Effect on: enzyme activity
Action: inhibitor
Concentration: 0.5 µM
Relative to: control
Residues (P52564 1-334): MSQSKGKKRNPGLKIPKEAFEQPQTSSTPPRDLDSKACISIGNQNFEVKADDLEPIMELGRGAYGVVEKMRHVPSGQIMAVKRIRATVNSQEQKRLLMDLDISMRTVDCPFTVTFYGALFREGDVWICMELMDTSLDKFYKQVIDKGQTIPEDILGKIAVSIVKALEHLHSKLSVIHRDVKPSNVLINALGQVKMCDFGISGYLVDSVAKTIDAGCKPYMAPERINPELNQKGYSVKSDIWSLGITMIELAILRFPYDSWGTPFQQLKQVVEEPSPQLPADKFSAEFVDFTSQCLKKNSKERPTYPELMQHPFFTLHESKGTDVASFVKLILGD
Structure (SMILES) | remaining activity
OCC(O)CCON=C1C(c2c(O)[nH]c3ccccc23)=Nc2ccccc21 (centres unmarked) | 79.7%
CO[C@H]1C[C@@H]2CC[C@@H](C)[C@@](O)(O2)C(=O)C(=O)N2CCCC[C@H]2C(=O)O[C@H]([C@H](C)C[C@@H]2CC[C@@H](O)[C@H](OC)C2)CC(=O)[C@H](C)/C=C(\C)[C@@H](O)[C@@H](OC)C(=O)[C@H](C)C[C@H](C)/C=C/C=C/C=C/1C | 107%
NCCNc1ncc(C(N)=O)c(Nc2cccc(C(F)(F)F)c2)n1 | 114%
CN(C)c1ccc(C=C2C(=O)Nc3ccccc32)cc1 | 94.7%
Cc1ccc(Nc2nccc(N(C)c3ccc4c(C)n(C)nc4c3)n2)cc1S(N)(=O)=O | 98.3%
COc1ccc(CNC(=O)Nc2ncc([N+](=O)[O-])s2)cc1 | 85.9%
Cc1cccc(-c2[nH]c(C(C)(C)C)nc2-c2ccc3c(c2)OCO3)n1 | 105%
O=C1NC(=O)C(c2cn(CCCn3ccnc3)c3ccccc23)=C1Nc1ccccc1 | 103%
O=c1c2ccccc2[nH]c(=S)n1CCN1CCC(=C(c2ccc(F)cc2)c2ccc(F)cc2)CC1 | 102%
N#CC(C#N)=C(N)/C(C#N)=C/c1ccc(O)cc1 | 94%
COc1cc2nccc(Oc3ccc(NC(=S)NC(=O)c4ccccc4C)cc3)c2cc1OC | 94.9%
Cc1nc(-c2ccccc2)c(-c2ccncc2)o1 | 99.3%
O=C(O)c1ccc2c3c1cccc3c(=O)n1c3ccccc3nc21 | 103%
CC(C)[C@H](CO)Nc1nc(Nc2cc(N)cc(Cl)c2)c2ncn(C(C)C)c2n1 | 92.5%

Sample 2
Target: Histone acetyltransferase KAT6A, winged helix 2, GST fusion (KAT6A, Homo sapiens, UniProt Q92794, residues 85-181)
Technique: protein binding microarray
Form: double-stranded DNA, one strand shown
Matrix: in vitro
Concentration: not given
Notes: 8-mer, flanks averaged, mean of 2 arrays, mostly near background
Relative to: not given
Reading: higher = stronger binding
Residues (chain): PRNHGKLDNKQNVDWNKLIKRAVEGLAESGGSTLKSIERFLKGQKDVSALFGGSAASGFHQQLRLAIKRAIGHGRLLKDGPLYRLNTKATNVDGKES
Sequence | E-score
ACTCGAAA | 0.0824
AGATCGAA | 0.168
ATAGCGCC | 0.0406
CCAACATC | -0.0185
GAGAAGTA | -0.138
ATAAACTA | 0.144
ACACATGG | -0.0295
AGCGTTGA | -0.0148

Sample 3
Target: CCNA2, cyclin fold, Cln2 fusion (human)
Technique: yeast growth competition, sequencing
Matrix: yeast
Notes: strong parent motif
Relative to: not given
Reading: higher = stronger binding
Parent: MICAL3 docking peptide (human); LQLRRQLSFSEDS; partner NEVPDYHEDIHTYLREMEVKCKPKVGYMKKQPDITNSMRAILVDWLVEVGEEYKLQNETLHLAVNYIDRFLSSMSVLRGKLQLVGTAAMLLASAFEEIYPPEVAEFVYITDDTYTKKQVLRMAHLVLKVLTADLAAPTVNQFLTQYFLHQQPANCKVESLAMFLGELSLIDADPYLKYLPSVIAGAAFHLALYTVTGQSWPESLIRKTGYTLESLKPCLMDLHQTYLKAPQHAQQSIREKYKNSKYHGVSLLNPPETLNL
Variant | normalised enrichment score
R5V | 0.349
R4H | 0.536
S10T | 3.15
Q2R | 3.82
R4F | 0.829
S8F | 3.76
L7T | -0.21
F9I | 0.226

Further values, each from its own experiment
Concentration: 1 µM
Compound | target or system | technique | notes | relative to | endpoint | result
O=C(Nc1cccnn1)N1CC(CC=Cc2cncc(Oc3ccc(C(F)(F)F)cn3)n2)C1 | Tyrosine-protein kinase ABL1 (ABL1, Homo sapiens, UniProt P00519, F317I) | KINOMEscan | F317I mutant, nonphosphorylated | control | remaining binding | 53%
CCC(=O)N[C@H]1CC[C@@H](C(=O)N(C)c2ccc(-c3nc4ccccc4o3)cc2)C1 | patient-derived normal-adjacent epithelium organoids |  |  | DMSO control | viability | 52%

A few entries again (further values, each from its own experiment):
Compound | target or system | technique | notes | relative to | endpoint | result
O=C(Nc1cccnn1)N1CC(CC=Cc2cncc(Oc3ccc(C(F)(F)F)cn3)n2)C1 | Tyrosine-protein kinase ABL1 (ABL1, Homo sapiens, UniProt P00519, F317I) | KINOMEscan | F317I mutant, nonphosphorylated | control | remaining binding | 53%
CCC(=O)N[C@H]1CC[C@@H](C(=O)N(C)c2ccc(-c3nc4ccccc4o3)cc2)C1 | patient-derived normal-adjacent epithelium organoids |  |  | DMSO control | viability | 52%
